{"data": "Published values gathered from unrelated publications", "note": "Numbered parts are unrelated; each lists some results of a single study. Substitutions count along the parent as printed."}
{"data": "Sample 1", "target": "CCNB3, cyclin fold, Cln2 fusion (human)", "method": "yeast growth competition, sequencing", "matrix": "yeast", "notes": "weak parent motif", "baseline": "not given", "reading": "higher = stronger binding", "starting sequence": "RRM2 docking peptide (human); SKTARRIFQEPTE"}
{"Change": "Q9A", "normalised enrichment score": 0.218}
{"Change": "I7A", "normalised enrichment score": 0.186}
{"Change": "E13A", "normalised enrichment score": 0.245}
{"Change": "R6A", "normalised enrichment score": 0.0997}
{"Change": "F8A", "normalised enrichment score": 0.22}
{"Change": "T3A", "normalised enrichment score": -0.299}
{"data": "Sample 2", "target": "Sal-like protein 4, full length isoform B (SALL4, Homo sapiens, UniProt Q9UJQ4-2, residues 1-616)", "method": "universal PBM", "molecule type": "double-stranded DNA, one strand shown", "matrix": "in vitro", "tested at": "not given", "notes": "8-mer, flanks averaged, mean of replicates", "reading": "higher = stronger binding"}
{"Strand": "GTTAGACA", "E-score": 0.102}
{"Strand": "GAGTCTGA", "E-score": -0.246}
{"Strand": "CCACACCA", "E-score": 0.0473}
{"Strand": "ATCGAAAA", "E-score": 0.275}
{"Strand": "GTCCCATA", "E-score": 0.0982}
{"Strand": "CATTCGAA", "E-score": 0.109}
{"Strand": "CTGGATCC", "E-score": -0.0828}
{"Strand": "AGTTGAGA", "E-score": -0.0415}
{"Strand": "CCCATAGC", "E-score": -0.0689}
{"Strand": "ACATCGCG", "E-score": -0.3}
{"Strand": "AGACCGTA", "E-score": -0.0256}
{"Strand": "ACATCGAA", "E-score": 0.126}
{"Strand": "AGTACGGG", "E-score": -0.0914}
{"Strand": "GAGGAATC", "E-score": -0.137}
{"Strand": "GCCAGCCC", "E-score": -0.354}
{"Strand": "CGGATTCA", "E-score": -0.057}
{"Strand": "GCGTTGCC", "E-score": -0.183}
{"Strand": "CGACACGA", "E-score": -0.109}
{"Strand": "ATTCGATA", "E-score": 0.263}
{"Strand": "CGTAGCAG", "E-score": -0.134}
{"Strand": "ACAAGACT", "E-score": 0.0962}
{"Strand": "AATGCCGT", "E-score": 0.0493}
{"data": "Sample 3", "target": "Runt-related transcription factor 1, full length (RUNX1, Homo sapiens, UniProt Q01196-8, residues 1-480)", "method": "protein-binding microarray", "molecule type": "hairpin DNA", "matrix": "in vitro", "tested at": "not given", "notes": "whole hairpin DNA, median over replicate spots", "baseline": "not given", "reading": "higher = stronger binding"}
{"Strand": "GAGGCCTCGCGCGGTTGGCCTCCTGGCCAACCGCGCGAGGCCTCACACTC (5mC at 8 36)", "median fluorescence [a.u.]": 2320}
{"Strand": "GAGGCCTCGTGCGGTTGGCCTCCTGGCCAACCGCACGAGGCCTCACACTC (5mC at 36)", "median fluorescence [a.u.]": 3190}
{"Strand": "GAGGCCTGTTGTGATTGGCCTCCTGGCCAATCACAACAGGCCTCACACTC", "median fluorescence [a.u.]": 1650}
{"Strand": "GAGGCCCGACCGCAACAGCCTCCTGGCTGTTGCGGTCGGGCCTCACACTC (5mC at 7)", "median fluorescence [a.u.]": 4970}
{"Strand": "GAGGCCTGTCGCGGATGGCCTCCTGGCCATCCGCGACAGGCCTCACACTC", "median fluorescence [a.u.]": 1790}
{"Strand": "CTCAGTTCTGTGGGCTGGACTCCTGTCCAGCCCACAGAACTGAGACACTC (5mC at 33)", "median fluorescence [a.u.]": 1710}
{"Strand": "CTCAGCGCTGTGGGCTGGACTCCTGTCCAGCCCACAGCGCTGAGACACTC (5mC at 38)", "median fluorescence [a.u.]": 1930}
{"Strand": "GAGGCCTGTTGCGGATGGCCTCCTGGCCATCCGCAACAGGCCTCACACTC", "median fluorescence [a.u.]": 1970}
{"Strand": "GAGGCCTGTTGTGGTCGGCCTCCTGGCCGACCACAACAGGCCTCACACTC (5mC at 28)", "median fluorescence [a.u.]": 3270}
{"Strand": "GAGGCCTGTTGCAGTTGGCCTCCTGGCCAACTGCAACAGGCCTCACACTC", "median fluorescence [a.u.]": 1640}
{"Strand": "GAGGCCCACGCGCAACAGCCTCCTGGCTGTTGCGCGTGGGCCTCACACTC (5mC at 35)", "median fluorescence [a.u.]": 1860}
{"Strand": "GAGGCCTGTCGCGGTTCGCCTCCTGGCGAACCGCGACAGGCCTCACACTC (5mC at 17)", "median fluorescence [a.u.]": 2240}
{"Strand": "GAGGCCTGTTCGGGTTGGCCTCCTGGCCAACCCGAACAGGCCTCACACTC (5mC at 11 33)", "median fluorescence [a.u.]": 1720}
{"Strand": "GAGGCCTCGCGCGGTTGGCCTCCTGGCCAACCGCGCGAGGCCTCACACTC (5mC at 36)", "median fluorescence [a.u.]": 2380}
{"Strand": "GAGGCCTGTCGCGGTCGGCCTCCTGGCCGACCGCGACAGGCCTCACACTC (5mC at 16)", "median fluorescence [a.u.]": 2270}
{"Strand": "GAGGCCTGTTATGGTTGGCCTCCTGGCCAACCATAACAGGCCTCACACTC", "median fluorescence [a.u.]": 1800}
{"Strand": "GAGGCCTGTCGCGGTGGGCCTCCTGGCCCACCGCGACAGGCCTCACACTC (5mC at 29)", "median fluorescence [a.u.]": 2060}
{"Strand": "GAGGCCTGTCGCGCTTGGCCTCCTGGCCAAGCGCGACAGGCCTCACACTC", "median fluorescence [a.u.]": 1730}
{"data": "Sample 4", "target": "RNA binding protein fox-1 homolog 2, RRM domain, GST-SBP tag (RBFOX2, Homo sapiens, UniProt O43251-10, residues 100-194)", "method": "RNA Bind-n-Seq", "molecule type": "RNA", "matrix": "in vitro", "tested at": "365 nM", "notes": "natural RNA segment, single round, ends assumed", "baseline": "no-protein control", "reading": "higher = stronger binding", "all sequences stand within": "GGGAGUUCUACAGUCCGACGAUC … UGGAAUUCUCGGGUGCCAA", "Construct (chain)": "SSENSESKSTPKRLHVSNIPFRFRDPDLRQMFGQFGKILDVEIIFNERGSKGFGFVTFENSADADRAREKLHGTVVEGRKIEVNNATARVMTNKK"}
{"Strand": "GAUGGAGACAGCCUGCUUAAAGCAAAUCCGAAUUUAAAUAGGACAUUUACAUCGGAAAAGUCUCUCCCUACCUUAAUCCCCCAUUCUCUUGCUUUCAAAAUACAAGCACA", "RBNS enrichment (R)": 0.418}
{"Strand": "CUUAGAGCCUUCACACGUGAGCACUAGGCCAUCUUAGCAGAACCCCCAUCUGGCAGCACAUGCCAAGUUUCAGGAGGAUUGGGGGGAGGCGGGUGCAGGCUUGAGAAGAA", "RBNS enrichment (R)": 0.848}
{"Strand": "AAAGGGGAGCUAUUUUUGCUUUUUAUGUUUUUUAUUGUUAAACUUGUAUCCCUUUAAAAACUGAAGGAAAUUAAAAAAAAAAAACAAAAAAACAAAUCUAAUGGUGCUUU", "RBNS enrichment (R)": 1.29}
{"Strand": "GAAGUUGCCUCCCCUGGUGUUCCACCAUCCACAGUUUCUGUAACAUUUACCCAGUGGACAUGAGCGCUGCUGAAUUUCAUAUAAGGGUCUUCACAGAAAAUACAUGUUCC", "RBNS enrichment (R)": 0.377}
{"Strand": "AUCACACCAUUAUUCCUUAGAAGUAAUUACAUGUGUUCUAACACAUUUGAGACAGGGUUGGACUCCCAUUUCUCAUCCGAGAAAUUACUUAACCCUUCCUGGCGCUGUAC", "RBNS enrichment (R)": 0.354}
{"Strand": "CUGUUUGUAUCAUGGACUGUCAUGCUCUAUGCCUGGUCCUGGGGUCUCUAGAGGAUACUCAUCUGGAGUCUCUGAAGACUUGACCCAUAUUUCCAAGACCCUACAACUCC", "RBNS enrichment (R)": 0.248}
{"Strand": "UAAGUAACUGAUAACUGAGAUUCGGGACCAUGUCUUGUUUGCCAUUGUGCCCUUGGAAUUUAAUACAAGUGCCUAACCCACAGUAGGGUUGAUUGAUUCACUGAUUAGUU", "RBNS enrichment (R)": 0.741}
{"Strand": "GAGAGGACAGUUCUUAGUCCAAUAAAAAUAUGCAGAUUGUAUGUAAUGAAAUUUUGUAAGCACAGGUAAUUUCUGUCAGAUGUAUUCUUAAACUUUUUAAUAUGUUGGGA", "RBNS enrichment (R)": 0.753}
{"Strand": "AUUAAUGAAAAAUGACAAAGCAGUGUACUGAUAAGCCAAGGUGCUUUUGAUCUGUAAUUUCUUCUCUAAAACUGCUGCAUCUGGUACAGUAGACUGUGGAAGGUGUUGAU", "RBNS enrichment (R)": 0.355}
{"Strand": "UUACUGAGGGGGGCUCUUGCUUUAUGCGAUGCUGCCUUAUUUCCUUUAGGGUACUGUCCUGGUCAAAAUGACCUAAGGGGAAACCGUUGUUGUAAACCUCUUUAUUUUGG", "RBNS enrichment (R)": 0.401}
{"Strand": "CUGCCUUGCUGGAGGAGAUGGGAUGGGGCGGGAGGUGGCUUCACCAUAACUAUUUUUAAUAUGGGUCAUUCUUAGCAUGAUUUGUAAAGGUCUCAGGCAAACAGUUGUUG", "RBNS enrichment (R)": 4.72}
{"Strand": "AGAUCAGAAUGCCUGUUCGUGGUUUCAUAUAAUAUAUUUUUCUAAAAGCAUAGAUUGCACAGGAAGGUAUGAGUACAAAUACUGUAAUGCAUAACUUGUUAUUGUCCUAG", "RBNS enrichment (R)": 3.2}
{"data": "Sample 5", "target": "Histone acetyltransferase KAT6A, both winged helices, GST fusion (KAT6A, Homo sapiens, UniProt Q92794, residues 1-181)", "method": "protein binding microarray", "molecule type": "double-stranded DNA, one strand shown", "matrix": "in vitro", "tested at": "not given", "notes": "8-mer, flanks averaged, mean of 2 arrays, mostly near background", "baseline": "not given", "reading": "higher = stronger binding", "Target sequence (chain)": "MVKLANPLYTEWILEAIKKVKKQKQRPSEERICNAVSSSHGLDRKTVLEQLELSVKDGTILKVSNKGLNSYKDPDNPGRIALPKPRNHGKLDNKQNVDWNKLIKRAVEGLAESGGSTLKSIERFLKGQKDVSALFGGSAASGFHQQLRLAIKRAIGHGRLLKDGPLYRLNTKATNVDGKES"}
{"Strand": "ACAAAAAT", "E-score": -0.0512}
{"Strand": "CAATTTAA", "E-score": -0.0775}
{"Strand": "CTGTAGCC", "E-score": -0.133}
{"Strand": "AAACTAGC", "E-score": -0.0186}
{"Strand": "TAATATTA", "E-score": -0.0824}
{"Strand": "CTCGTAAC", "E-score": 0.0286}
{"Strand": "AAGGTCAT", "E-score": -0.0997}
{"Strand": "GCAACAAC", "E-score": -0.0462}
{"Strand": "GGTACAGA", "E-score": -0.03}
{"Strand": "TCCGTAAA", "E-score": 0.21}
{"Strand": "CAAATTCA", "E-score": -0.00448}
{"Strand": "CCTGAAGG", "E-score": -0.135}
{"Strand": "CGGGCAAG", "E-score": 0.181}
{"Strand": "GAAAACTA", "E-score": -0.031}
{"Strand": "GGTTTTGA", "E-score": -0.0321}
{"Strand": "AAGCTGAG", "E-score": -0.0514}
{"Strand": "CAACTGAG", "E-score": 0.00547}
{"data": "Sample 6", "target": "Eukaryotic initiation factor 4A-I (EIF4A1, Homo sapiens, UniProt P60842, residues 1-406, full length assumed)", "method": "RNA Bind-n-Seq", "molecule type": "RNA", "matrix": "in vitro", "tested at": "90 pmol", "notes": "4-mer, random 30-nt RNA, single round", "added": "3 µM iPr-DMDA-PatA, 2 mM ADP, 2 mM phosphate", "baseline": "input library", "reading": "higher = stronger binding", "UniProt P60842, sequence (whole entry, looked up)": "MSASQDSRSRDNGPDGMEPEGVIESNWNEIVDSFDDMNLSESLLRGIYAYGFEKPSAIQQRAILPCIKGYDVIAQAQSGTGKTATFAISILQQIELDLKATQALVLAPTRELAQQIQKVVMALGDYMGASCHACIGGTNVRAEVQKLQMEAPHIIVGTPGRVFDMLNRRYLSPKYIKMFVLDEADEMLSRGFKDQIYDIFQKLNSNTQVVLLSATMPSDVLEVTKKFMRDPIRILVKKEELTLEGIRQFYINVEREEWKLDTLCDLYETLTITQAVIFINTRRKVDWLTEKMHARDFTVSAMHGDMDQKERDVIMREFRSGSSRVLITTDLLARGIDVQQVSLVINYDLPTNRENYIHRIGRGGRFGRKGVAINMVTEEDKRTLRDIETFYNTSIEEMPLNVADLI"}
{"Strand": "AACA", "4-mer enrichment": "1.36 fold"}
{"Strand": "GCGG", "4-mer enrichment": "0.616 fold"}
{"Strand": "GUGC", "4-mer enrichment": "0.718 fold"}
{"Strand": "GCCU", "4-mer enrichment": "0.766 fold"}
{"Strand": "GCGA", "4-mer enrichment": "1.01 fold"}
{"Strand": "UUCC", "4-mer enrichment": "0.987 fold"}
{"Strand": "AGAG", "4-mer enrichment": "1.23 fold"}
{"Strand": "ACCU", "4-mer enrichment": "1.07 fold"}
{"Strand": "UCGA", "4-mer enrichment": "1.19 fold"}
{"Strand": "GGGA", "4-mer enrichment": "0.748 fold"}
{"Strand": "AUUU", "4-mer enrichment": "1.25 fold"}
{"Strand": "GAGC", "4-mer enrichment": "0.934 fold"}
{"Strand": "CAAG", "4-mer enrichment": "1.14 fold"}
{"Strand": "UUUC", "4-mer enrichment": "1.05 fold"}
